Published values of several laboratories.
Each numbered part is a random draw from the data of one study; scales do not carry over between parts.

Series 1 — method: protein binding microarray; form: double-stranded DNA, one strand shown; medium: in vitro; concentration: not given; baseline: not given; direction: higher = stronger binding
Target: Histone acetyltransferase KAT6A, both winged helices, GST fusion (KAT6A, Homo sapiens, UniProt Q92794, residues 1-181)
Notes: 8-mer, flanks averaged, mean of 2 arrays, mostly near background
Residues (chain): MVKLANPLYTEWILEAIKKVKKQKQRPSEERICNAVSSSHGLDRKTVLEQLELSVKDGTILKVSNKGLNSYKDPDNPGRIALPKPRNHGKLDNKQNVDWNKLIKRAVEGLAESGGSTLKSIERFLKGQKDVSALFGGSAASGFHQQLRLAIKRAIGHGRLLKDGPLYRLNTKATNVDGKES
`CGAATGTC` has an E-score of -0.0319.
For `TGTAACAA`, the E-score was -0.144.
`ACAATCCC` has an E-score of -0.0346.
`ATAGACGA` has an E-score of -0.0539.

Series 2 — method: universal PBM; form: double-stranded DNA, one strand shown; medium: in vitro; concentration: not given; direction: higher = stronger binding
Target: Sal-like protein 4, full length isoform B (SALL4, Homo sapiens, UniProt Q9UJQ4-2, residues 1-616)
Notes: 8-mer, flanks averaged, mean of replicates
`AAGAAAGG` gave an E-score of 0.059.
With `ACTTGGTG` the E-score was -0.0688.
The E-score of `AGTGTTGG` is reported as -0.109.
With `AGCATCGA` the E-score was 0.0342.

Other studies, line by line
G3BP1 C-terminal RGG region: Ras GTPase-activating protein-binding protein 1, C-terminal RGG region (G3BP1, Homo sapiens, UniProt Q13283)
Chain of UniProt Q13283 (whole entry, looked up): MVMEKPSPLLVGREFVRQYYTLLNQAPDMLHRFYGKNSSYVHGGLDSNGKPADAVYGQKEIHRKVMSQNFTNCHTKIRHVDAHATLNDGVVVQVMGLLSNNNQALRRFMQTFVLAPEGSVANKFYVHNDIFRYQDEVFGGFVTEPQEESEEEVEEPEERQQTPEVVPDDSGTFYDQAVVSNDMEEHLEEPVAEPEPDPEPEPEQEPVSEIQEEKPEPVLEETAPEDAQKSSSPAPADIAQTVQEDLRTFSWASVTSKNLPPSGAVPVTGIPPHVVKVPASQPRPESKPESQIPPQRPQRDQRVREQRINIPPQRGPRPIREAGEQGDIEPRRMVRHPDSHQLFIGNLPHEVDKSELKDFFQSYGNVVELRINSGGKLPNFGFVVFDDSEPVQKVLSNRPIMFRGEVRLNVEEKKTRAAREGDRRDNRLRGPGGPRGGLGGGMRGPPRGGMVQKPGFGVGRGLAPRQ
G3BP1 RRM domain: Ras GTPase-activating protein-binding protein 1, RRM domain (G3BP1, Homo sapiens, UniProt Q13283)
`GGGAGUUCUACAGUCCGACGAUCCCUCAAGUCCUGUGCUACACAUCGUAUGUACCGAAUCGGAGGGGAGGGAGGGAAAGUAUUAUGUUACGCCGUUCGGAUCUGCACUUCCAGUGGAAUUCUCGGGUGUCAAGG` has a log2 enrichment of 1.3 (G3BP1 C-terminal RGG region; RNA Bind-n-Seq; RNA, in vitro; 1 µM, whole 134-nt RNA, ends assumed, added: 150 mM KCl; baseline: input library, higher = stronger binding).
For `PhoQ, residues 284 288 289 292 302 303 SSCCRF`, the fold induction was 8.04 (PhoP, residues 12 14 15 18 19 NQAHL (Escherichia coli, UniProt P23836); Sort-seq, item: YFP reporter; E. coli; PhoQ-PhoP variant library, added: 10 µM Mg2+; baseline: high Mg2+ state, higher = stronger signaling).
`GGGAGUUCUACAGUCCGACGAUCUGGGAGGUGGAUUUUGUUUAAUUUUUUAGCUCAUUUCCAGGGGUGGGAAUUUUUUUUUAAUAUGUGUCAUGAAUAAAGUUGUUUUUGAAAUGGAAUUCUCGGGUGUCAAGG` gave a log2 enrichment of 1.08 (G3BP1 RRM domain; RNA Bind-n-Seq; RNA, in vitro; 1 µM, whole 134-nt RNA, ends assumed, added: 150 mM KCl; baseline: input library, higher = stronger binding).
`GGGAGUUCUACAGUCCGACGAUCUCCUGUGCUACACAUCGUAUGUACCGAAUCGGGUUUUUUGGGUUUUUUGGGGUUUUUUGGAAAGUAUUAUGUUACGCCGUUCGGAUCUGCUGGAAUUCUCGGGUGUCAAGG` has a log2 enrichment of -0.263 (G3BP1 C-terminal RGG region; RNA Bind-n-Seq; RNA, in vitro; 1 µM, whole 134-nt RNA, ends assumed, added: 150 mM KCl; baseline: input library, higher = stronger binding).
`GGGAGUUCUACAGUCCGACGAUCUAACUUUAGCGGAGGAUCUGAUGGAUAUGGCAGUGGACGUGGAUUUGGGGAUGGCUAUAAUGGGUAUGGAGGAGGACCUGGAGGUGGCAAUGGAAUUCUCGGGUGUCAAGG` gave a log2 enrichment of -0.852 (G3BP1 RRM domain; RNA Bind-n-Seq; RNA, in vitro; 1 µM, whole 134-nt RNA, ends assumed, added: 150 mM KCl; baseline: input library, higher = stronger binding).
